Measured values gathered from unrelated publications.
Each line is one published result; not all experiments were run side by side.
Target: Serine/threonine-protein kinase DCLK3 (DCLK3, Homo sapiens, UniProt Q9C098)

CC(C)=CC1OC(C)(C)C2C=C3C(=O)C(Cl)=CC(O)C3C3C(O)C4OC4C(=O)C132 (stereo not shown) — remaining binding (cell-free assay, competition with immobilised ligand; 10 µM): 100%
COc1cc(Nc2nccc(-c3cnn4nc(OC)ccc34)n2)cc(C(F)(F)F)c1 — remaining binding (binding, competition with immobilised ligand; 1 µM): 95%
CNC(=O)C[C@H](Cc1ccc(C#N)cc1)NC(=O)c1cc(-c2ccc(CN[C@H](C)c3ccc(C)cc3)o2)ccc1Cl — activity vs control (enzyme activity, inhibitor; 1 µM): 106%
O=C(Cc1ccc(OCc2ccccc2)cc1)NC1(C(=O)O)CCN(C(=O)c2ccc(-c3cccc(Cl)c3)cc2)CC1 — activity vs control (enzyme activity, inhibitor; 10 µM): 123%
COc1c(Cl)cccc1Nc1c(-c2ccncc2C#C[C@@]2(C)CCCN2C(=O)/C=C/CN(C)C)[nH]c2c1C(=O)NCC2 — remaining binding (binding, competition with immobilised ligand; 3 µM): 100%
Nc1ncc2c(n1)-c1c([nH]c3ccc(C4=CCOCC4)cc13)CCC2 — remaining binding (binding, competition with immobilised ligand; 1 µM): 100%
C[C@]1(O)CCCN(c2nc(Nc3ccc(S(=O)(=O)N[C@H]4CC[C@H](CN5CCN(c6ccc(C7CCC(=O)NC7=O)cc6F)CC5)CC4)cc3)ncc2C(F)(F)F)C1 (stereo partly shown) — remaining binding (binding, competition with immobilised ligand; 1 µM): 3.3%
Cc1ccc(-c2c(/C=C(\C#N)C(=O)NC(C)C)n(CCCO)c3ncnc(N)c23)cc1 — remaining binding (cell-free assay, competition with immobilised ligand; 1 µM): 100%
COc1cc(Nc2nc(C)cc(-c3cnn4nc(OC)ccc34)n2)cc(C(F)(F)F)c1 — remaining activity (inhibitor; 1 µM, DCAMKL3; reference: control): 100%
Cc1cnc2nc1Nc1cccc(c1)COC/C=C/COCc1cc(ccc1OCCN1CCOCC1)N2 — remaining binding (binding, competition with immobilised ligand; 0.1 µM): 100%
C=CC(=O)N1CCc2ccc(-n3c(=O)ccc4cnc5ccc(-c6cnn(C)c6)cc5c43)cc21 — remaining binding (KINOMEscan; 1 µM; reference: DMSO control): 100%
CNC(=O)C1CCN(c2cc(C)c(F)cc2NC(=O)c2ccc(-c3cc(O)ccc3C)c(C)c2)CC1 — remaining binding (binding, competition with immobilised ligand; 1 µM): 100%
CCN1CCN(Cc2ccc(C(=O)Nc3ccc(C)c(NCc4cnc5[nH]ccc5c4OC)c3)cc2C(F)(F)F)CC1 — remaining binding (binding, competition with immobilised ligand; 1 µM): 100%
CNC1C[S+]2CC[S+]3CC[S+](C1)[Ru-4]321([N]=C=S)[n]2c3ccc(OC)cc3c3c4c(c5cc(F)c[n+]1c5c32)C(=O)NC4=O (stereo not shown) — remaining binding (KinomeScan; 0.1 µM; reference: untreated): 48%
C=CC(=O)N1CCCC(n2c(=O)c3ncccc3n(Cc3ccc(Oc4ccccc4)cc3)c2=O)C1 (stereo not shown) — remaining binding (cell-free assay, competition with immobilised ligand; 1 µM): 92%
CN1CC[C@@H](COc2cnc(C#N)cc2-c2ccn3nc(NC(=O)C4CC4)cc3c2)C1 — inhibition (enzyme activity, inhibitor; 1 µM): -7%

A few entries again:
O=C(Cc1ccc(OCc2ccccc2)cc1)NC1(C(=O)O)CCN(C(=O)c2ccc(-c3cccc(Cl)c3)cc2)CC1 — activity vs control (enzyme activity, inhibitor; 10 µM): 123%
